# Published values from different studies.
# Parts stem from different laboratories: compare values within a part only. Positions count from the first letter of the parent shown.

# Series 1 — technique: RNA Bind-n-Seq; molecule type: RNA; sample: in vitro; concentration: 365 nM; baseline: no-protein control; reading: higher = stronger binding
# Target: RNA binding protein fox-1 homolog 2, RRM domain, GST-SBP tag (RBFOX2, Homo sapiens, UniProt O43251-10, residues 100-194)
# Notes: natural RNA segment, single round, ends assumed
# Construct (chain): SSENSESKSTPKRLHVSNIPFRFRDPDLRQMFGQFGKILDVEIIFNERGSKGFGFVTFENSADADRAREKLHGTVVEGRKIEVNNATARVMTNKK
Strand,RBNS enrichment (R)
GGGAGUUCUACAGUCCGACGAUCUUUGUUUAAAGCGUGGGGUUUUUUAAUCUCUGCCACCCUUGUCAAGGGAGUCUUGUAAAGUUGCCGAGGGUAGGUUCAUCUCCAGGUUUCGGGAUUCCCAUCCGUCCUGGUGGAAUUCUCGGGUGCCAA,0.301
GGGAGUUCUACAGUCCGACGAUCAACUCCCCUGGCACUCAGCUCUGCCUCUAGUUCAGCCGCCCAGCCACUGAGAGUCAGGGCAUGGUGCUGCGGGGGAGGGCUCUUUUCUAUAUUUAUUUGAUAGCGAUAAGUGGAAUUCUCGGGUGCCAA,0.193
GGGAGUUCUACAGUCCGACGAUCGUAAGAGGACCCGUGAGGACACCAGAGUCUAGCCCAGAAAGCCCGGGAGGGCUGGAGAGCGAGUACAGUUGUGAACGGGGUAAAGAAAGGCCCUCUAGUGAAGAUGUUGUUGGAAUUCUCGGGUGCCAA,0.54
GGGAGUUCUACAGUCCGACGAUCCAAAUGUAUUAUUUUGGUGACAAAAAUGAAGGAGCUUUGUAAAUUUUUUUUAAAAUUAUGAAUCAUAUCAAGUAGUUGUUUACAUUUCUUGAAAAAAUAGGAACUCGGGCUGGAAUUCUCGGGUGCCAA,0.837
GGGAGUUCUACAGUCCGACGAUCUGGUACACUGUGACAGUGGCUCUAGGGGAGGAGGCCAGGAGCCUGGCCACAGUGUUGGCUGGACUCUGACUCAGUGGCCCAGCCUGCAGCUGGAAGGACACAGGUUGCCGUGGAAUUCUCGGGUGCCAA,0.932
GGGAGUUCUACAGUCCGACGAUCAUGGGGAACACGUGUUCAUUCAUUAAGUCCAUCUUGCGUGCAGCUAUAUCCCUGAUUGGUUAUUUUUCCUUUCCUUCUGAGGUUCUCAUGUCAUUUUCUUCAUCGGAUGUUGGAAUUCUCGGGUGCCAA,0.402
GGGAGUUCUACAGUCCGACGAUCAAAGCAAUUACAUGCAUGUUGCAUUUUUUUCAUCUGUUGUACAUAGUUGUAUUUUUAUCUAAUGCCAUUUUAGAAUUUUCUAAGGGAAUUUAAUGAAUUCACAUGAAAGGUGGAAUUCUCGGGUGCCAA,8.46
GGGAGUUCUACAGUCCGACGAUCCCCUGAGGUGCUGCUGCUGGGUCUGUCUUGGCUCUGGGGUGUGCUGGGAGGGUCACCAGGUCCCUUUUCCUUCCUGUGCCCUCUGAAAGCUAAGUGUCUGUGUGGCUGUGUGGAAUUCUCGGGUGCCAA,0.575
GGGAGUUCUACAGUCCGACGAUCUGAGCUACAUAUGGUCGUCAUUUUCUUCAAACUCUCAAAAUAGGAAAGUGGAAAUUUUUCUCCCCUAUAUAAAAUUAUUCUGCCUAGCAGAAAUGCCAGAAAUAAAUUAAUGGAAUUCUCGGGUGCCAA,0.579
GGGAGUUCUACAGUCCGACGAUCCCUAGGUGACAUUUUUAGAAUUAAUACUUAAAUGUUAAACAGGGGGAAAUGAAGCUUAAUCAUGGUCAGGUUUGAGAUCUUUUGCAGUGAAAUAAUUUUAUUUAAUAUAAUGGAAUUCUCGGGUGCCAA,0.973
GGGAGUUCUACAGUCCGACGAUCUUGGGUGUCCUCAACAGUGAAUUCACUGUCUGCGUGCAGUUAUUACAUGCAUUUGUGCAUUUCUACUACAAUGGCAUCUUUAUGUCUCUGUAACAUUGGCCUUUUCAUGGUGGAAUUCUCGGGUGCCAA,0.363
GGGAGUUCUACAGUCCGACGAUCGCAGUGUCCUGUACAAAACUGUGCUGUGACUGUGCGGUAGGCCUGGACAUGGCAAAGAGAAUACAGCGAAGCCCCUUCUCUUCCUACCAAACAACUCUGUAGAGCUCUCUUGGAAUUCUCGGGUGCCAA,0.173

# Series 2 — technique: RNA Bind-n-Seq; molecule type: RNA; sample: in vitro; concentration: 1 µM; notes: whole 134-nt RNA, ends assumed; together with: 150 mM KCl; baseline: input library; reading: higher = stronger binding
# Target: Ras GTPase-activating protein-binding protein 1, C-terminal RGG region (G3BP1, Homo sapiens, UniProt Q13283)
# Sequence of UniProt Q13283 (whole entry, looked up): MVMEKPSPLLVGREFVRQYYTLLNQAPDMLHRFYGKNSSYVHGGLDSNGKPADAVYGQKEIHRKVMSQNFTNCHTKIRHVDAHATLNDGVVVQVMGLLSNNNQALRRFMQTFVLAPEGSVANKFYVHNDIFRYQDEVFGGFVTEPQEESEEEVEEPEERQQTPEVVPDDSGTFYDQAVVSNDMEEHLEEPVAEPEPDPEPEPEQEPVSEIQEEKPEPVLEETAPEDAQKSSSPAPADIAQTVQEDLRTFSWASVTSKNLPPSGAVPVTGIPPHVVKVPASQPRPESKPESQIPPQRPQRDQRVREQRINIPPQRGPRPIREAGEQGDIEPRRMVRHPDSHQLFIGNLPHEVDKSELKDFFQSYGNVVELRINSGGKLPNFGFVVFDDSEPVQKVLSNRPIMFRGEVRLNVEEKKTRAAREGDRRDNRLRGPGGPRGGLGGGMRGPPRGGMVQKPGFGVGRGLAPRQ
Strand,log2 enrichment
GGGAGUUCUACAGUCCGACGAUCGCAGGAAGUAAAAACAAAUGGAAAUGCUUCGGAUAGUGGCAGGGGUGGGGGUUGCUAAGGAAAGGAUGGGAUGGGAGUGGGUAAAGAGUUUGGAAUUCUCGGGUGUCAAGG,1.75
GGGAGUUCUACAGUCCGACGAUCUGUCUGGUGACAAGGAAGAGGAUGCUCCUCAUAGAGAAGAUUACUUUGAGCCCAUUUCUCCUGAUCGGAAUUCUGUUCCCCAGGAAGGGCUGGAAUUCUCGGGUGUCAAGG,-2.11
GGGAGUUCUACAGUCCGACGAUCGGCUGCUGGAGUGCCGUGAGCAGGCCGCGGGAACGUCGCCGUCACCUUGUCUCGGGGCCUCGGCGCUGCUUCCCGCCAAAACACGUUUACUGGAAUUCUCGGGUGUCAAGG,-1.69
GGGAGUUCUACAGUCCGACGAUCCACAGACAACACGCACCCACACAGACACAGAGGGAAGGGGUUGGGAUGGGGACAGGGUGCACAGCAGGGCGUGGUAGGACCCCAGCCCCUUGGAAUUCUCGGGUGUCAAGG,-0.394
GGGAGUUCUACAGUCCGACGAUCCCUGUGCUACACAUCGUAUGUACCGAAUCGGGGCCCCCCGGCCCCCCGGGCCCCCCGGGGAAAGUAUUAUGUUACGCCGUUCGGAUCUGCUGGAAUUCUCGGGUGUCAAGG,-1.48
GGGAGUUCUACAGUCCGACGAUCCACAGACAACACGCACCCACACAGACACAGAGGGAAGGGGUUGGGAUGGGGACAGGGUGCACAGCAGGGCGGGGUUGGACCCCAGCCCCUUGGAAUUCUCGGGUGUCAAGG,-1.3
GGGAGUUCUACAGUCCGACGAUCACCAUGCAGGUGGGCAUCUUUGGGAAGUGGGGCAAGGGGCGGAUAGGGAGGGGGGUAACACUUUGGGAACAGGUGGUCCCAGGUCGUUUCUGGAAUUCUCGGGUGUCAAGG,2.18
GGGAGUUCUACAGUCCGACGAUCUCCUGUGCUACACAUCGUAUGUACCGAAUCGGGUUUUUUGGGUUUUUUGGGUUUUUUGGGAAAGUAUUAUGUUACGCCGUUCGGAUCUGCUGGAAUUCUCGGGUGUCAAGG,-0.363
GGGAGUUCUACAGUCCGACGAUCUCCUGUGCUACACAUCGUAUGUACCGAAUCGGGGCCCCCCGGGCCCCCCGGCCCCCCGGAAAGUAUUAUGUUACGCCGUUCGGAUCUGCAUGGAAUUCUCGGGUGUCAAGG,-0.975
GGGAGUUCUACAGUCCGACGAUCCACAGACAACACGCACCCACACAGACACAGAGGGAAGGGGUUGGGAUGGGGACAGGGUGCACAGCAGGGCGGGGUAGGACCCCAGCUCCUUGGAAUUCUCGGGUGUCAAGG,-0.889
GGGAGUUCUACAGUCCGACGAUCCAAGUCCUGUGCUACACAUCGUAUGUACCGAAUCGGGGAGGGGAGGGGUUUGGGGAAAGUAUUAUGUUACGCCGUUCGGAUCUGCACUUCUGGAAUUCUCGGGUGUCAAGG,2.74
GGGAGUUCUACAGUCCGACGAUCUCCUCAAGUCCUGUGCUACACAUCGUAUGUACCGAAUCGGUGGGGUGGGUGGAAAGUAUUAUGUUACGCCGUUCGGAUCUGCACUUCCAGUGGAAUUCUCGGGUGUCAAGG,0.199
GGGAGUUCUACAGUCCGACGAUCCAAGUCCUGUGCUACACAUCGUAUGUACCGAAUCGGGAGGGUUUGGGUUUUUGGGAAAGUAUUAUGUUACGCCGUUCGGAUCUGCACUUCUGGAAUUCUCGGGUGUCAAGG,1.26
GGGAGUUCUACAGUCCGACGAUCUCAAGUCCUGUGCUACACAUCGUAUGUACCGAAUCGGGUGGGAAAAAGGGUGGGAAAGUAUUAUGUUACGCCGUUCGGAUCUGCACUUCCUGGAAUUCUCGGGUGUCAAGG,1.46

# Series 3 — technique: DHFR PCA, deep sequencing; sample: yeast; together with: (+)-ABA 710 µM; baseline: wild-type fitted maximum; reading: higher = stronger binding
# Target: ABI1, truncated, D143A, DHFR fusion (Arabidopsis thaliana)
# Notes: methotrexate growth selection, single substitutions
# Starting sequence: PYL1, truncated, DHFR fusion (Arabidopsis thaliana); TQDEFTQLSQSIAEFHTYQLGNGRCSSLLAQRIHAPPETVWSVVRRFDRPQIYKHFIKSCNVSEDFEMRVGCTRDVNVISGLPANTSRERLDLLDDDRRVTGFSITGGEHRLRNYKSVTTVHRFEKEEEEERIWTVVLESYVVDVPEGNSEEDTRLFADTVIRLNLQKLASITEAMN
Substitution,relative binding score
V44L,95.4%
T39A,99.9%
V76P,0.394%
E151T,98.7%
A158Y,2.94%
V78I,110%
Q7I,98.4%
K58H,103%
S11Q,108%
E129G,116%
P83G,85.5%
R49I,84.6%
V142G,82%
H122P,8.04%
N114Y,59.7%
Y115Q,-8.42%
E4P,99.5%
T119F,65.6%

# Series 4 — target: CCND2, cyclin fold, Cln2 fusion (human); technique: yeast growth competition, sequencing; sample: yeast; notes: weak parent motif; baseline: not given; reading: higher = stronger binding
# Starting sequence: DBF4B docking peptide (human); LGYLYLLLTQSLW
Substitution,normalised enrichment score
L6A,-0.809
L8A,-0.0416
G2A,-0.409
Y3A,-0.621
Y5A,-0.301
Q10A,0.246
L1A,-0.0155

# Series 5 — technique: protein-binding microarray; molecule type: double-stranded DNA, one strand shown; sample: in vitro; concentration: 2200 nM top; notes: 60-bp whole probe; together with: salmon DNA 0.4 mg/ml; baseline: random background probes; reading: higher = stronger binding; all sequences stand within: GCCTAGCAC … GTCTTGATTCGCTTGACGCTGCTG
# Target: Interferon regulatory factor 7, full length, phosphomimetic (IRF7, Homo sapiens, UniProt Q92985, residues 1-503, S471D/S472D/S475D/S476D/S477D/S483D/S484D/S487D)
# Sequence of UniProt Q92985 (whole entry, unmodified, looked up): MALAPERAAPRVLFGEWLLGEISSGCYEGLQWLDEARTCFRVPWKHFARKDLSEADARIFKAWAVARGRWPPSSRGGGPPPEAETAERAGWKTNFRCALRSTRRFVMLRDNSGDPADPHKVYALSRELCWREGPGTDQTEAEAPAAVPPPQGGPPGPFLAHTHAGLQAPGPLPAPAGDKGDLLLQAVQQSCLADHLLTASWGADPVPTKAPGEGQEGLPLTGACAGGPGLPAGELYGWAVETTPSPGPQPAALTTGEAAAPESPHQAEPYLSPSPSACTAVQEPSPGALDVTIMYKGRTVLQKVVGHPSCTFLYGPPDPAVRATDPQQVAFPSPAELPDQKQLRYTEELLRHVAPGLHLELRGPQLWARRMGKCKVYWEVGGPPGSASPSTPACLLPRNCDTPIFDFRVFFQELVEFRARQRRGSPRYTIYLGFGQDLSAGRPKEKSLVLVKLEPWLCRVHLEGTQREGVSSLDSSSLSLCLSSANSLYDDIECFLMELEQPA
Strand,fitted relative affinity [z-score]
TCACATTTTCTCTTATTACTGTGCTAG,2.72
TTAAGTTTCCTTTCCCTTTAGTGCTAG,6.01
GACAAACTGGGGTATCGAGACGTGCTA,0.147
TCTTGTCTGGAGTCTCTGTTCGTGCTA,1.26
GACGGACTGTACTATCGGGACGTGCTA,-0.343
TCAACTAGGGCATTTAGAACTGTGCTA,-1.18
TTAGGTTTCGGGGCTGGGTTAGTGCTA,2.17
TTAGGTCTCGGTATCGCTTAGTGCTAG,0.796
GTAGATATCGGGTATCGATTAGTGCTA,0.123
TTAGGACTCCTTATCCTTTAGTGCTAG,0.778
GACGGTATCGACGCTGGGGACGTGCTA,-0.286
GACGAATTCGGGACTGGAGACGTGCTA,-0.19
TTAGGAATCCTTTTCCTTTAGTGCTAG,0.88
GACGGACTGGGACTGGGAACGTGCTAG,-0.793
TTAGGCATCGGACTGGGTTAGTGCTAG,-0.547
GACGGTTTCGGTTATCGGGACGTGCTA,7.52
TTCCCTTTCTCAACCTCCAGGTGCTAG,3.92
TTGCATCGTAAGCAAAAATGGTGCTAG,-0.0665
TGGGGCTGTATCATCTGAAGGTGCTAG,-0.752

# Series 6 — technique: universal PBM; molecule type: double-stranded DNA, one strand shown; sample: in vitro; concentration: not given; reading: higher = stronger binding
# Target: Sal-like protein 4, full length isoform B (SALL4, Homo sapiens, UniProt Q9UJQ4-2, residues 1-616)
# Notes: 8-mer, flanks averaged, mean of replicates
Strand,E-score
ATTAATTG,0.375
ATGATAGA,0.207
CAGGCCAA,-0.263
ATCAAATA,0.33
CGATTTTA,0.157
ACAGTCGT,-0.0737
ATCAATCA,0.234
CTCATCCA,0.0278
GGGTGTAA,-0.0055
CCTCCATC,-0.243
AACTTCTT,0.0231
CTAGTATC,-0.0174
CTTGCATC,-0.139
CCGGCTGC,-0.424
ACACTAGA,0.139
ACATTATG,0.33
ACTAGGCT,-0.00457
CCACGCGG,-0.33
CATACGCG,0.0549
AAAGAGGC,-0.139
CCCGCGTC,-0.257
CTTCACTC,-0.122
CAGGTGGG,-0.243
AGACCGTC,-0.17
ACCCCAAT,-0.00578

# Other studies, line by line
Molecule,target,assay,system,setting,how to read,endpoint,value
"PhoQ, residues 284 288 289 292 302 303 TYGVAM","PhoP, residues 12 14 15 18 19 NQAHL (Escherichia coli, UniProt P23836)","Sort-seq, refers to: YFP reporter",E. coli,"PhoQ-PhoP variant library, together with: 10 µM Mg2+","baseline: high Mg2+ state, higher = stronger signaling",fold induction,2.65

# Repeated from above (series 4):
Substitution,normalised enrichment score
L6A,-0.809
L8A,-0.0416
G2A,-0.409
Y3A,-0.621
Y5A,-0.301
Q10A,0.246
